# Published values of several laboratories.
# ± marks the error that the study gave.
# CYP3A4: Cytochrome P450 3A4 (CYP3A4, Homo sapiens, UniProt P08684)
# Chain of UniProt P08684 (whole entry, looked up): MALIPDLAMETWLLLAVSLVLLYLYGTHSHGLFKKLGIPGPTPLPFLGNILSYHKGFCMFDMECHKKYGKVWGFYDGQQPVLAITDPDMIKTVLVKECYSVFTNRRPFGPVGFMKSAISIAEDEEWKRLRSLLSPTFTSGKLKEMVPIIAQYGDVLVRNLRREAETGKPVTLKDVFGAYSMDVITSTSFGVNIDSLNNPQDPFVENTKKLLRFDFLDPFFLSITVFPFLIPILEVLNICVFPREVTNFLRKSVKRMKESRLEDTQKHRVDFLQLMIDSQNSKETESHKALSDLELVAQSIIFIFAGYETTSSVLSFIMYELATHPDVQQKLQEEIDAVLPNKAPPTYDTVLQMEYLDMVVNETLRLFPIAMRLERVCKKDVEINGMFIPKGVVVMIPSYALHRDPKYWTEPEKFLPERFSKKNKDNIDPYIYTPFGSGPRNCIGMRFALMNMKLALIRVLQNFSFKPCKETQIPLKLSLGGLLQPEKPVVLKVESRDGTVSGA
# CYP2C9: Cytochrome P450 2C9 (CYP2C9, Homo sapiens, UniProt P11712)
# Chain of UniProt P11712 (whole entry, looked up): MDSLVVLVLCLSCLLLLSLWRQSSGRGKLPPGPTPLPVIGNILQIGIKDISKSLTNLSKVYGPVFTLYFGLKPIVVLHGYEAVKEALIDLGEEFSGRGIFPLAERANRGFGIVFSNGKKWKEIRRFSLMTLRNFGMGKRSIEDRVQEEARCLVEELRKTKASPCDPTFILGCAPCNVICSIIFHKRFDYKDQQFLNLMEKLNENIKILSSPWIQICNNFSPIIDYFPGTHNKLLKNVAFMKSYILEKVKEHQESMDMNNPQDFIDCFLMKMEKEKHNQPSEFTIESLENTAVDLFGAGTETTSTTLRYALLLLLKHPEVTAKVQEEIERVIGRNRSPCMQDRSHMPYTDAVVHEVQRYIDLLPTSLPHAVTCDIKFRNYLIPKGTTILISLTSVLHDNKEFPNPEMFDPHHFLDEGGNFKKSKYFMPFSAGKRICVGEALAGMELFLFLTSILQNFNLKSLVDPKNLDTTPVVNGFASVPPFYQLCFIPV
# CYP2C8: Cytochrome P450 2C8 (CYP2C8, Homo sapiens, UniProt P10632)
# Chain of UniProt P10632 (whole entry, looked up): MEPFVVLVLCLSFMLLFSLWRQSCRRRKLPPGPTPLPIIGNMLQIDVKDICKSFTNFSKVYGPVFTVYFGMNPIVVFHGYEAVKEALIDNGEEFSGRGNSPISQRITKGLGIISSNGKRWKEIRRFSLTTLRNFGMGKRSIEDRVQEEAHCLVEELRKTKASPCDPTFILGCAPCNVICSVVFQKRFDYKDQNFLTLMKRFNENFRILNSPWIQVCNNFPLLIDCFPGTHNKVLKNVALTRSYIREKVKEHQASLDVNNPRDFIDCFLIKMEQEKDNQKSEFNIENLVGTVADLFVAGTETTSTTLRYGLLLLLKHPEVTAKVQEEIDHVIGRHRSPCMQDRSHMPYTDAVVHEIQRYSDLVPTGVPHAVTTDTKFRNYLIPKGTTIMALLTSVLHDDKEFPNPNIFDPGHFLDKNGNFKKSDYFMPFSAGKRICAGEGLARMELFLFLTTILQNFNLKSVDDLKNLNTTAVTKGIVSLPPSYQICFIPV
# ABCG2: Broad substrate specificity ATP-binding cassette transporter ABCG2 (ABCG2, Homo sapiens, UniProt Q9UNQ0)
# Chain of UniProt Q9UNQ0 (whole entry, looked up): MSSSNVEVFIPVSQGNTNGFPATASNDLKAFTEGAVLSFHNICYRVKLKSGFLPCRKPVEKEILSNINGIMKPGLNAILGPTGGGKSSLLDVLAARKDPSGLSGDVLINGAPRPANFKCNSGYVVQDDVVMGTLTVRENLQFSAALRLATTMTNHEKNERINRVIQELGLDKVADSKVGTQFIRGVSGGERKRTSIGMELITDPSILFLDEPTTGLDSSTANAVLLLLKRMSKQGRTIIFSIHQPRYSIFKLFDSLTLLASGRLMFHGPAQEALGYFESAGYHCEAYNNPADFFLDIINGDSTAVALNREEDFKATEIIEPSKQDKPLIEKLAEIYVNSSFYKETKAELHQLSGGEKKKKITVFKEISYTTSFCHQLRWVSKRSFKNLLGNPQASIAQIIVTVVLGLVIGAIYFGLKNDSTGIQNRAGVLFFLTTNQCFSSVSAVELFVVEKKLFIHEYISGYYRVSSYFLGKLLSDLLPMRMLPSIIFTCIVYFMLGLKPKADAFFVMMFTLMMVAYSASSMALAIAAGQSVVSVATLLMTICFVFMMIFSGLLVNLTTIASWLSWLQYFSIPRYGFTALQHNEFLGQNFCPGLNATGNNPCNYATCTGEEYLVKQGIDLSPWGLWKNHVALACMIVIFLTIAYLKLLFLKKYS
Compound,target,test,system,conditions,scale,quantity,result
COc1cccc(C2(O)CCCCC2CN(C)C)c1 (stereo not shown),complex I,oxygen consumption acceleration,BALB/cByJ female mouse liver mitochondria,"60 min, with: malate + glutamate",,EC20,239 µM
Cc1ncc2n1-c1ccc(Cl)cc1C(c1ccccc1F)=NC2,CYP3A4,"ligand, stopped flow",,"40 µM, pH 7.4, opt-WT variant",,kslow,0.021 ± 0.003 s⁻¹
CNC(=O)O/N=C/C(C)(C)[S+](C)[O-] (stereo not shown),CYP2C9,inhibitor,human liver microsomes,"2 µM, pH 7.4, with: diclofenac",,inhibition,7.71%
CC[C@@H]1CN2CC[C@@]3(O)C(=Nc4cccc(OC)c43)[C@@H]2C[C@@H]1/C(=C\OC)C(=O)OC,CYP2C8,"enzyme activity, inhibitor","human, liver microsomes",,,IC50,> 45 µM
C[C@]12CCC(=O)C[C@@H]1CC[C@@H]1[C@@H]2CC[C@@]2(C)[C@H]1CC[C@@]2(O)C/C=C/C[C@]1(O)CC[C@H]2[C@@H]3CC[C@H]4CC(=O)CC[C@]4(C)[C@H]3CC[C@@]21C,CYP3A4,"enzyme activity, inhibitor",,,,IC50,12 µM
COc1ccccc1CCn1c2c(c3c(O)cccc31)C(=O)c1ccccc1-2,ABCG2,"mitoxantrone efflux, inhibitor, flow cytometry",HEK293 transfected with ABCG2,"10 µM, 30 min, with: mitoxantrone 5 µM",relative to: Ko143 1 µM,inhibition,85 ± 11%
CNC(=O)O/N=C/C(C)(C)SC,CYP2C9,inhibitor,human liver microsomes,"2 µM, pH 7.4, with: diclofenac",,inhibition,< 0%
Cc1cc(O)c2c3c(n(CCc4ccccc4)c2c1)-c1ccccc1C3=O,ABCG2,"mitoxantrone efflux, inhibitor, flow cytometry",HEK293 transfected with ABCG2,"10 µM, 30 min, with: mitoxantrone 5 µM",relative to: Ko143 1 µM,inhibition,92 ± 22%
c1ccc(C2(N3CCCCC3)CCCCC2)cc1,CYP2B6 (baboon),hydroxybupropion formation,baboon liver microsomes,"concentration not given, 30 min, with: bupropion",,inhibition,80%
COc1ccc(CCn2c3c(c4c(O)cccc42)C(=O)c2ccccc2-3)cc1,ABCG2,"mitoxantrone efflux, inhibitor, flow cytometry",HEK293 transfected with ABCG2,"10 µM, 30 min, with: mitoxantrone 5 µM",relative to: Ko143 1 µM,inhibition,111 ± 14%
CC[C@H]1CN2CCc3c([nH]c4cccc(OC)c34)[C@@H]2C[C@@H]1/C(=C\OC)C(=O)OC,CYP2C8,"enzyme activity, inhibitor","human, liver microsomes",,,IC50,> 45 µM
O=C1c2ccccc2-c2c1c1c(O)cc(-c3ccccc3)cc1n2CCc1ccccc1,ABCG2,"mitoxantrone efflux, inhibitor, flow cytometry",HEK293 transfected with ABCG2,"10 µM, 30 min, with: mitoxantrone 5 µM",relative to: Ko143 1 µM,inhibition,111 ± 2%
OCc1ncc2n1-c1ccc(Cl)cc1C(c1ccccc1F)=NC2,CYP3A4,,human,"25 mg once daily, day 10, with: midazolam 7.5 mg",relative to: compound over midazolam,AUC ratio,0.319

# Excerpt of the above:
Compound,target,test,system,conditions,scale,quantity,result
CNC(=O)O/N=C/C(C)(C)[S+](C)[O-] (stereo not shown),CYP2C9,inhibitor,human liver microsomes,"2 µM, pH 7.4, with: diclofenac",,inhibition,7.71%
Cc1ncc2n1-c1ccc(Cl)cc1C(c1ccccc1F)=NC2,CYP3A4,"ligand, stopped flow",,"40 µM, pH 7.4, opt-WT variant",,kslow,0.021 ± 0.003 s⁻¹
